Assay results gathered from unrelated publications.
Lines come from different studies, so protocols differ. ± gives the spread as reported.

F[P-](F)(F)(F)(F)F.OC(Cn1cncn1)(Cn1cc(-[c-]2cccc2)nn1)c1ccc(F)cc1F.[Co+3].c1cc[cH-]c1 (racemic)  MIC50 (Candida glabrata; EUCAST): 100 µM
CC(=O)NCCN(CC(=O)NCCN(CC(=O)NCCN(CC(=O)NCCC(N)=O)C(=O)[C@@H](N)CCCNC(=N)N)C(=O)[C@@H](N)CCCNC(=N)N)C(=O)[C@@H](N)Cc1ccccc1  binding entropy term TΔS° (HIV-1 TAR RNA; concentration not given, 25 °C): -5.81 ± 0.12 kcal/mol
CCCCCCCCCCCCCCCC(=O)N[C@@H](CCC(=O)NCCOCCOCCC(=O)NCCOCCOCCC(=O)NCCCC[C@H](NC(=O)[C@H](CC(=O)O)NC(=O)[C@H](CC(C)C)NC(=O)[C@H](Cc1ccc(O)cc1)NC(=O)[C@H](CCCCN)NC(=O)[C@H](CO)NC(=O)[C@H](Cc1ccc(O)cc1)NC(=O)[C@H](CC(=O)O)NC(=O)[C@H](CO)NC(=O)[C@@H](NC(=O)[C@H](Cc1ccccc1)NC(=O)[C@@H](NC(=O)CNC(=O)[C@H](CCC(N)=O)NC(=O)[C@@H](CO)NC(=O)[C@@H](N)Cc1c[nH]cn1)[C@@H](C)O)[C@@H](C)O)C(=O)N[C@@H](CCCNC(=N)N)C(=O)N[C@@H](CCCNC(=N)N)C(=O)N[C@@H](C)C(=O)N[C@@H](CCC(N)=O)C(=O)N[C@@H](CC(=O)O)C(=O)N[C@@H](Cc1ccccc1)C(=O)N[C@H](C(=O)N[C@@H](CCC(N)=O)C(=O)N[C@@H](Cc1c[nH]c2ccccc12)C(=O)N[C@@H](CC(C)C)C(=O)N[C@@H](CC(C)C)C(=O)N[C@@H](CC(N)=O)C(=O)N[C@H](C(=O)NCC(=O)NCC(=O)N1CCC[C@H]1C(=O)N[C@@H](CO)C(=O)N[C@@H](CO)C(=O)NCC(=O)N[C@@H](C)C(=O)N1CCC[C@H]1C(=O)N1CCC[C@H]1C(=O)N1CCC[C@H]1C(=O)N[C@@H](CO)C(N)=O)[C@@H](C)O)C(C)C)C(=O)O  AUC(0-t) (rhesus monkey, male, plasma; subcutaneous, 300 µg/kg, day 28, toxicokinetics, mean): 2890 ng·h/mL
CNCc1ccc2c(c1)N(C(=O)OCc1c(F)c(F)c(F)c(F)c1F)[C@H](CNC(=N)N)[C@H]2NC(=O)C(=O)Nc1ccc(Cl)c(F)c1  IC50 (env (Human immunodeficiency virus 1, UniProt C6ZIG9); pseudovirus infection, luciferase reporter; TZM-bl; 48 h): 8.73 µM
CC(=O)NCCN(CCC(=O)NCCN(CCC(=O)NCCN(CCC(=O)NCCC(N)=O)C(=O)[C@@H](N)Cc1ccccc1)C(=O)[C@@H](N)Cc1ccccc1)C(=O)[C@@H](N)CCCNC(=N)N  binding entropy term TΔS° (HIV-1 TAR RNA; concentration not given, 25 °C): 0.239 ± 0.143 kcal/mol
CNCc1ccc2c(c1)C[C@H](CNC(=N)N)[C@H]2NC(=O)C(=O)Nc1ccc(Cl)c(F)c1  IC50 (Human immunodeficiency virus 1; viral infection, Env pseudovirus; TZM-bl, 231965.c01 clade D): 2.69 µM
C[C@H](Nc1ncnc(N)c1C#N)c1c(-c2ccccc2)[nH]c2c(Cl)cccc2c1=O  IC50 (primary CLL cells; cell viability, CellTiter-Glo; 24 h, across sample A patient samples): 0.85 to 37 µM
